Assay results collected from several papers.
Each numbered part is a random draw from the data of one study; scales do not carry over between parts. Values joined by “and” are separate records of one study, mostly repeats; a detail may differ. Positions count from the first letter of the parent shown.
Chain of UniProt P9WI81 (whole entry, looked up): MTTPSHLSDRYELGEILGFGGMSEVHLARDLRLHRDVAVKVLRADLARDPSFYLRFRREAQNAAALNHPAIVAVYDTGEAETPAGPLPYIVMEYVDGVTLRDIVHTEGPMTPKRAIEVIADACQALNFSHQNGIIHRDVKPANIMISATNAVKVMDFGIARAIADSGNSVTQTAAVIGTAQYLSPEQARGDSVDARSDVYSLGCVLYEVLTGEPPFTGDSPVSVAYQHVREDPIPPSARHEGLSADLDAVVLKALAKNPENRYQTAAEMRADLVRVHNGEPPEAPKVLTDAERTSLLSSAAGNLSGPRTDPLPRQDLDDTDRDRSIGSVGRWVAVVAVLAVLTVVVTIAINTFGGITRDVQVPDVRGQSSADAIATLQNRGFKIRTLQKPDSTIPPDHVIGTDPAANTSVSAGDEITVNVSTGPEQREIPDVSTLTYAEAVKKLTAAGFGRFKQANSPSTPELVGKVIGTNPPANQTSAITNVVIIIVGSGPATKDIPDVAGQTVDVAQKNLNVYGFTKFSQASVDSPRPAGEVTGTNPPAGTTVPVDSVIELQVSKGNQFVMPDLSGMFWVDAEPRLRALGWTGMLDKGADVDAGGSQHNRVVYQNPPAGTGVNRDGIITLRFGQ
Chain of UniProt P11229 (whole entry, looked up): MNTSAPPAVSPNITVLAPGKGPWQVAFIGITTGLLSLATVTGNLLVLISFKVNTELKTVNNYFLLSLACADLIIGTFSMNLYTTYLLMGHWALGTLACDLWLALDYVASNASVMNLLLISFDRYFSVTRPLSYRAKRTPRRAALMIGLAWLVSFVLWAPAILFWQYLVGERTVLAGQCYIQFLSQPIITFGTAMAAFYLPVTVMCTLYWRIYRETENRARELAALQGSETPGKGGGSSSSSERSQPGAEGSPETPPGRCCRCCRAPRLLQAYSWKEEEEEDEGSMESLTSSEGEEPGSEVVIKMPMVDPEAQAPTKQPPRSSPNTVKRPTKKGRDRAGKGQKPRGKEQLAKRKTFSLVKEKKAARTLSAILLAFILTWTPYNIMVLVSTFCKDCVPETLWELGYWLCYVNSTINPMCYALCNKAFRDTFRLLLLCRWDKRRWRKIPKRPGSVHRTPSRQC
Chain of UniProt Q01959 (whole entry, looked up): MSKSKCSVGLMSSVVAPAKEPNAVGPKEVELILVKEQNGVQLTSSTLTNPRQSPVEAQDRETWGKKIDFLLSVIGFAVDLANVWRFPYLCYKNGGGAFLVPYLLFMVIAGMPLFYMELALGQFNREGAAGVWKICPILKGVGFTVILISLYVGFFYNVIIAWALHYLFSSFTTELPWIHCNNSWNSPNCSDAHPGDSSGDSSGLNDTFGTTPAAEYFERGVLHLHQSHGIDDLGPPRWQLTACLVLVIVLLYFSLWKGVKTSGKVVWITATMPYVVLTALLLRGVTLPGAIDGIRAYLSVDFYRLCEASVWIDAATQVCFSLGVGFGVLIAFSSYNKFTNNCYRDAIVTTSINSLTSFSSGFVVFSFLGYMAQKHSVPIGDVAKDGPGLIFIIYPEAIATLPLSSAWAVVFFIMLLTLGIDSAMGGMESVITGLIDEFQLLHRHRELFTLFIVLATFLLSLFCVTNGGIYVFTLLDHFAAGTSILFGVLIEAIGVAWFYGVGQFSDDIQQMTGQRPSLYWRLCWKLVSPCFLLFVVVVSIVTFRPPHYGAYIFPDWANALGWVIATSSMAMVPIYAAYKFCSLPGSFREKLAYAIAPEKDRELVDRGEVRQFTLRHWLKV

Series 1
SMILES: [N-]=[N+]=CC(=O)CC[C@H](N)C(=O)O
Species: mouse, EL4 tumour
Route: intravenous
Dose: 1 mg/kg
Quantity: tumour volume
day 8: 237 mm3 and 252 mm3 and 548 mm3 and 288 mm3 and 560 mm3 and 680 mm3 and 405 mm3 and 301 mm3
day 7: 166 mm3 and 361 mm3 and 215 mm3 and 274 mm3 and 471 mm3 and 540 mm3 and 141 mm3 and 386 mm3
day 11: 72 mm3 and 303 mm3 and 0 mm3 and 376 mm3 and 185 mm3 and 72.6 mm3 and 220 mm3

Series 2
Target: HLA class I histocompatibility antigen, A alpha chain, allele A*80:01 (Homo sapiens, UniProt P04439)
Effect on: peptide-MHC binding
Form: peptide
Concentration: concentration not given
Quantity: binding
YLAKLFLDH: active
KRLQILGYL: inactive
LARFPCNVI: inactive
EASTWLDIF: inactive
STTTCEAGV: inactive
SSEADCFTY: inactive
TTFPVNGGY: inactive
DWMDRIEEF: inactive

Series 3
Target: CCNB2, cyclin fold, Cln2 fusion (human)
Technique: yeast growth competition, sequencing
Matrix: yeast
Notes: strong parent motif
Reference: not given
Reading: higher = stronger binding
Quantity: normalised enrichment score
Starting sequence: viral docking peptide; TSVRRALFTGGSD
TSVRRALFVGGSD [T9V]: 0.724
TSVPRALFTGGSD [R4P]: -0.0477
TSVRRKLFTGGSD [A6K]: 0.782
TSVRRALLTGGSD [F8L]: 0.521
TSVRRALVTGGSD [F8V]: 0.349
TSVRRALFTGPSD [G11P]: 1.27
TSVRRALGTGGSD [F8G]: -0.108
TSVLRALFTGGSD [R4L]: 0.168

Single results of other studies
CC(=O)N1CCC(c2ccc(C(=O)NC3=NCCN3)cc2C(F)(F)F)CC1 — inhibition (Sodium-dependent dopamine transporter (SLC6A3, Homo sapiens, UniProt Q01959); ligand displacement; 10 µM): 87.3%
CC(C)(C)c1cc(C=C(C#N)C#N)cc(Br)c1O — viability (HuT78; 2 µM, 48 h; reference: untreated): 138%
Nc1cnc(N2CCc3cc(S(=O)(=O)Nc4c(F)cc(Cl)cc4F)cc(N4CCCC4=O)c32)nc1 — remaining binding (Serine/threonine-protein kinase PknB (pknB, Mycobacterium tuberculosis, UniProt P9WI81); cell-free assay, competition with immobilised ligand; 1 µM): 96%
CNCc1ccccc1-c1csc([C@H](C)Nc2nc(C)nc3cc(OC)c(OC)cc23)c1 — inhibition (Muscarinic acetylcholine receptor M1 (CHRM1, Homo sapiens, UniProt P11229); binding, radioligand binding; 10 µM): 89.1%
